Published values gathered from unrelated publications.
Numbered parts are unrelated; each lists some results of a single study. “And” joins repeats or separate records; there may be more than shown. Numbers after ± are the reported error.
UniProt Q9Y5S2, sequence (whole entry, looked up): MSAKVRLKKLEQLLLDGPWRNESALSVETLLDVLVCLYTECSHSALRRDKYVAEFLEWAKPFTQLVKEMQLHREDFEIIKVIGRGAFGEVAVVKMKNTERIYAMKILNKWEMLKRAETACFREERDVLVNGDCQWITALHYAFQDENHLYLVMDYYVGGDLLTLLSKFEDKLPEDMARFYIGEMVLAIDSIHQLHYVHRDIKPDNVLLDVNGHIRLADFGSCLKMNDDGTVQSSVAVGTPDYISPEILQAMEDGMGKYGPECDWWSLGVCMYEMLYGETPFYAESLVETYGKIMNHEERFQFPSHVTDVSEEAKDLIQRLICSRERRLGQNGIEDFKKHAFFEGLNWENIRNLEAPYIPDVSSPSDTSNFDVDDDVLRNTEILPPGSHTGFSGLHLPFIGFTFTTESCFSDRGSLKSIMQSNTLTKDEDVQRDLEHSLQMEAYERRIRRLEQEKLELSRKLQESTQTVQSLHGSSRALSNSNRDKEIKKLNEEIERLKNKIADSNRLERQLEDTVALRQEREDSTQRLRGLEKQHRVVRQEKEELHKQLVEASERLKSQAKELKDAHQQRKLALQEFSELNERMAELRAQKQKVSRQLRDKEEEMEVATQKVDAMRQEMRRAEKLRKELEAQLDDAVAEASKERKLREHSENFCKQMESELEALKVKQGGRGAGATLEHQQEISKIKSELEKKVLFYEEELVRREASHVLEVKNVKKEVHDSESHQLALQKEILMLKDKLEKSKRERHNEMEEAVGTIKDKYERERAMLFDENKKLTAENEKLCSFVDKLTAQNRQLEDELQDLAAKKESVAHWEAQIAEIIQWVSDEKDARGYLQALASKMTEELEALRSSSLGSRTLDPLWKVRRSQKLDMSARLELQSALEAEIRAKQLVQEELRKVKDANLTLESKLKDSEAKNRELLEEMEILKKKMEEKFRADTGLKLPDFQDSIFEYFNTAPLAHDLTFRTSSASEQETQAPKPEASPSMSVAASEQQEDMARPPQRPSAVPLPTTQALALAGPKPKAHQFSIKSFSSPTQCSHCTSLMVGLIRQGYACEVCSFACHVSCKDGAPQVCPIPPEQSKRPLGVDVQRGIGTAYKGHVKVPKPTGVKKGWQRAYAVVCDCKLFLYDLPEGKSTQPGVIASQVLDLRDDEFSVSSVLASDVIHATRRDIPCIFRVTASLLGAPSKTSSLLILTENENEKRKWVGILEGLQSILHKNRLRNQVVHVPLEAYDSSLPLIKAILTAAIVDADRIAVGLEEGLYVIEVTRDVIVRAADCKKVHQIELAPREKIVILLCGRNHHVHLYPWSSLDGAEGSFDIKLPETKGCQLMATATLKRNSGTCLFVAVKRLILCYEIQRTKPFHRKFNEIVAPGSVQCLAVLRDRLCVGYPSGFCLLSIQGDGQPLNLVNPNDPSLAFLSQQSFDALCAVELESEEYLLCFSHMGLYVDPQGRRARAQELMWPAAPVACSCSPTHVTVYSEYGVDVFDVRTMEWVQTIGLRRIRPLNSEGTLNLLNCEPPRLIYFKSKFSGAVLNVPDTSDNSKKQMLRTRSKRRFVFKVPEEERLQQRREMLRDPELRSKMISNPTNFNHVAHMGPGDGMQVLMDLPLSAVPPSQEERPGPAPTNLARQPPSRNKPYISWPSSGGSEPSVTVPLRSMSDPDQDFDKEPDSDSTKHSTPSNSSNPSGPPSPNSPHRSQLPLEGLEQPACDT
UniProt Q13237, sequence (whole entry, looked up): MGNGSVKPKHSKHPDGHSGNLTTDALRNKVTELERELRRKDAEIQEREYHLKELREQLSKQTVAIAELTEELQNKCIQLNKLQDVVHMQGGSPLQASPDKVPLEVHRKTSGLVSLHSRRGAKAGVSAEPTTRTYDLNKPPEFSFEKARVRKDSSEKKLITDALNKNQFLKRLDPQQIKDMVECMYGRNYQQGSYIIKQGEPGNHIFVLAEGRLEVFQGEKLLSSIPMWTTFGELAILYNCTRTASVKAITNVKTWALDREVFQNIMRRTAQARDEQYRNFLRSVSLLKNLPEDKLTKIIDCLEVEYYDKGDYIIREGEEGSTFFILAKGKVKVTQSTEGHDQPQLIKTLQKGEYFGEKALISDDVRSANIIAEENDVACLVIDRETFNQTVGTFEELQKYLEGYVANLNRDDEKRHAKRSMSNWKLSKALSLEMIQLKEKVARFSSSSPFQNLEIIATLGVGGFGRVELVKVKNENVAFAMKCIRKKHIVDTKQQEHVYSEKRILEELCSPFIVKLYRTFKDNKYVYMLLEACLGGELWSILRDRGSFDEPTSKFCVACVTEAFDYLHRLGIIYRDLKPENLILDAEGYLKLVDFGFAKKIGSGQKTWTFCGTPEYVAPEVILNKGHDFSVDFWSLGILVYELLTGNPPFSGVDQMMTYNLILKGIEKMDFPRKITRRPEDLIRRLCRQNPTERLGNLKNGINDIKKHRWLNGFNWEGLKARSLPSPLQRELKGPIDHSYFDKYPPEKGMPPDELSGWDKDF
UniProt Q02750, sequence (whole entry, looked up): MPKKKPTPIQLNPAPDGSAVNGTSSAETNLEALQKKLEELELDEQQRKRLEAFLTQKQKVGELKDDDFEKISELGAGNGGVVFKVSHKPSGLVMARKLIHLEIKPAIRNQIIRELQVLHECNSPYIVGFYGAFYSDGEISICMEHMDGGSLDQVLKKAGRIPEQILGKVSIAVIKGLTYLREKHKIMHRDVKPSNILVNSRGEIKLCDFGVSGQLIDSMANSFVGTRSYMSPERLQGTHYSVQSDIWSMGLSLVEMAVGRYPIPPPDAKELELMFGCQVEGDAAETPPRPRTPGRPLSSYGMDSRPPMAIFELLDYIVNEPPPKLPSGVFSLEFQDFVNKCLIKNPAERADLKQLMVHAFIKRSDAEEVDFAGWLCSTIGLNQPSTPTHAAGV
UniProt Q15759, sequence (whole entry, looked up): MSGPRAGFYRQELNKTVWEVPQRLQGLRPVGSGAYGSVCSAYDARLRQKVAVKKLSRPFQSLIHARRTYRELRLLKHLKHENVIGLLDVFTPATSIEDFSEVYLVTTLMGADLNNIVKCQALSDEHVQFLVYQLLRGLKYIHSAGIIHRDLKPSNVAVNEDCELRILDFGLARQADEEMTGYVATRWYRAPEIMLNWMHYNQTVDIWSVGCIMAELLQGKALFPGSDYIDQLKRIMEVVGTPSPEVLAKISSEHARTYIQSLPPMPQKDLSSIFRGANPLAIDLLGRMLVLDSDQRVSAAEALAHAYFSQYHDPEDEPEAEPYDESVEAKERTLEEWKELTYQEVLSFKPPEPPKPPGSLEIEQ
UniProt Q16539, sequence (whole entry, looked up): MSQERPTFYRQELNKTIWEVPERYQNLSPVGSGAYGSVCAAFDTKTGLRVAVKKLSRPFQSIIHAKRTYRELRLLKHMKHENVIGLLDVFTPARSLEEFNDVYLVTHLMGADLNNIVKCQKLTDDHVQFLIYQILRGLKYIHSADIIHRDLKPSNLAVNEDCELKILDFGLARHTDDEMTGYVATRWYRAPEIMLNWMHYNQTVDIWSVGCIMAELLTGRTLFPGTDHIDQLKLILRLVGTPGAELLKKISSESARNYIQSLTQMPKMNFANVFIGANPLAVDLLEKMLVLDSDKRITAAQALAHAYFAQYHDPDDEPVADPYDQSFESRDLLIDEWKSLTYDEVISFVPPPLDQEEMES
UniProt Q9HAZ1, sequence (whole entry, looked up): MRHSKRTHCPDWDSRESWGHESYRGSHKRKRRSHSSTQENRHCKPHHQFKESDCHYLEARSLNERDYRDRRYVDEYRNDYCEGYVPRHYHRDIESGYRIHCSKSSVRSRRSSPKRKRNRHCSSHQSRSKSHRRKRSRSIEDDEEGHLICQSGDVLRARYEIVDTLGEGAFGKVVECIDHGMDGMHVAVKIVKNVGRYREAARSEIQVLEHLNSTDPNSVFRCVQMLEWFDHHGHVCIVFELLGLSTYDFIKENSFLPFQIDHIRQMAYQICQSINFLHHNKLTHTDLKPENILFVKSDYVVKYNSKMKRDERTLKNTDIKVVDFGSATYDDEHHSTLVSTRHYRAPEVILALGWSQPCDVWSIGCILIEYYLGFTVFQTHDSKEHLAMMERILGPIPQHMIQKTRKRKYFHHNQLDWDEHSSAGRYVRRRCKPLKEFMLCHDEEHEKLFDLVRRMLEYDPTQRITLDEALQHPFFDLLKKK
UniProt O75914, sequence (whole entry, looked up): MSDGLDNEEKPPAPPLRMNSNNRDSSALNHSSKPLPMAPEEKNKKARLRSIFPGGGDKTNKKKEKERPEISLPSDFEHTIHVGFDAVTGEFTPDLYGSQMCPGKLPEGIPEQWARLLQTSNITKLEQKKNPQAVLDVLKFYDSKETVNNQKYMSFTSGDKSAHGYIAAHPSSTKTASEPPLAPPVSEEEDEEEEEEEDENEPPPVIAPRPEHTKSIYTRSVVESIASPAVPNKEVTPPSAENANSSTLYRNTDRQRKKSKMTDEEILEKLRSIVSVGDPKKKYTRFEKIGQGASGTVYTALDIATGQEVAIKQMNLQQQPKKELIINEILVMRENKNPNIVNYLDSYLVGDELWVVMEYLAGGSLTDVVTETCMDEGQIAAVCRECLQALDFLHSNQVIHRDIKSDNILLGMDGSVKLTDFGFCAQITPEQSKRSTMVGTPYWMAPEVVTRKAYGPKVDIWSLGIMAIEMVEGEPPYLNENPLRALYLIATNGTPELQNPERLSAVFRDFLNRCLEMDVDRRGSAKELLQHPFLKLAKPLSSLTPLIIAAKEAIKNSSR
UniProt P28482, sequence (whole entry, looked up): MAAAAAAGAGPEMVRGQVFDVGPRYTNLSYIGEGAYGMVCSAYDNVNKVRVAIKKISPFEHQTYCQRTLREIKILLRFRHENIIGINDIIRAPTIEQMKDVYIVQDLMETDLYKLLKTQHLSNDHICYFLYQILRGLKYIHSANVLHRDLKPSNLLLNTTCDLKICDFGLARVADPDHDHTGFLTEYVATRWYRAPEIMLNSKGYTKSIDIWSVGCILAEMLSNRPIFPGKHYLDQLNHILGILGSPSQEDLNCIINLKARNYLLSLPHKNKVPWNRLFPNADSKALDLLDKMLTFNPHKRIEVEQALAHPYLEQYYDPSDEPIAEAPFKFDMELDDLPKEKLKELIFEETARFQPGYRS

Series 1 — read-out: kinase activity
SMILES: COc1cc(C(=O)N2CCC(N3CCN(C)CC3)CC2)ccc1Nc1ncc2c(n1)N(C)c1ccccc1C(=O)N2C
target | tested at | remaining activity
CDK2-cyclin A | 1 µM | 84 ± 2%
JAK2 | 10 µM | 80 ± 8%
p38a MAPK | 1 µM | 95 ± 4%
SRC | 10 µM | 99 ± 2%
MST4 | 10 µM | 87 ± 3%

Series 2 — read-out: enzyme activity; action: inhibitor; tested at: 0.5 µM; baseline: control
SMILES: O=C1NC(=O)C(c2c[nH]c3ccccc23)=C1c1c[nH]c2ccccc12
target | remaining activity [%]
Serine/threonine-protein kinase MARK2 (MARK2, Homo sapiens, UniProt Q7KZI7) | 88.9
Dual specificity protein kinase CLK3 (CLK3, Homo sapiens, UniProt P49761) | 102
Mitogen-activated protein kinase 11 (MAPK11, Homo sapiens, UniProt Q15759) | 89
cGMP-dependent protein kinase 2 (PRKG2, Homo sapiens, UniProt Q13237) | 52.6
Serine/threonine-protein kinase PAK 3 (PAK3, Homo sapiens, UniProt O75914) | 97.4
Mitogen-activated protein kinase 14 (MAPK14, Homo sapiens, UniProt Q16539) | 109
Serine/threonine-protein kinase DCLK2 (DCLK2, Homo sapiens, UniProt Q8N568) | 89.3
Rho-associated protein kinase 1 (ROCK1, Homo sapiens, UniProt Q13464) | 97.4
Serine/threonine-protein kinase MRCK beta (CDC42BPB, Homo sapiens, UniProt Q9Y5S2) | 99
Dual specificity mitogen-activated protein kinase kinase 1 (MAP2K1, Homo sapiens, UniProt Q02750) | 95.8
Dual specificity protein kinase CLK4 (CLK4, Homo sapiens, UniProt Q9HAZ1) | 76.1
Mitogen-activated protein kinase 1 (MAPK1, Homo sapiens, UniProt P28482) | 90.5
Discoidin domain-containing receptor 2 (DDR2, Homo sapiens, UniProt Q16832) | 101

Series 3 — organism: Sarcocystis neurona; read-out: parasite growth; tested at: 10 µM; time: 96 h; setting: first screen; baseline: untreated
Compound | log2 fold change
N#Cc1ccc(C(c2ccc(C#N)cc2)n2cncn2)cc1 | 0.21
CC(C)(C(=O)c1cccnc1)c1cccnc1 | 0.26
Oc1ncnc2[nH]ncc12 | 0.14
Nc1cc(N2CCCCC2)nc(N)[n+]1[O-] | 0.31

Series 4 — species: mouse; medium: microsomes or S9; tested at: 2 µM; time: 0.5 h
SMILES | remaining compound [%]
CCN1C=CC(=C(C=C2C=CC(=O)C=C2)CS(=O)(=O)O)C=C1 | 84.8
CC(C)(C)NC(=O)Cn1nc2c(-c3nc(-c4cccc(F)c4)no3)cccn2c1=O | 80.8
COCCN(C)C(=O)Cn1c(-c2ccccc2)nn(-c2cccc(C)c2)c1=O | 52
CCc1ccc(-c2nc3sc(N4CCN(C(=O)c5ccnn5C)CC4)nn3c2NC(C)(C)C)cc1 | 45.4
Cc1cccc(C)c1NS(=O)(=O)c1c(C)nc(O)nc1O | 81.9
CCCC(=O)Nn1c(=S)[nH]c2cc(C)[nH]c2c1=O | 65.1

Single results of other studies
SMILES | cell line | technique | tested at | time | quantity | value
Cn1cncc1[C@@](O)(COc1ccc(C#N)cc1-c1ccc(OC(F)(F)F)cc1)c1ccc(C#N)cc1 | HEK293T | high-content imaging | 10 µM | 0 h | cells with healthy nuclei | 52.7% and 68.8%

For quick reference, copied from above (series 1):
target | tested at | remaining activity
JAK2 | 10 µM | 80 ± 8%
p38a MAPK | 1 µM | 95 ± 4%
SRC | 10 µM | 99 ± 2%
MST4 | 10 µM | 87 ± 3%
